Measured values gathered from unrelated publications.
Compare with care: the assays were run in different laboratories. ± gives the spread as reported.
CYP2A6: Cytochrome P450 2A6 (CYP2A6, Homo sapiens, UniProt P11509)
UniProt P11509, sequence (whole entry, looked up): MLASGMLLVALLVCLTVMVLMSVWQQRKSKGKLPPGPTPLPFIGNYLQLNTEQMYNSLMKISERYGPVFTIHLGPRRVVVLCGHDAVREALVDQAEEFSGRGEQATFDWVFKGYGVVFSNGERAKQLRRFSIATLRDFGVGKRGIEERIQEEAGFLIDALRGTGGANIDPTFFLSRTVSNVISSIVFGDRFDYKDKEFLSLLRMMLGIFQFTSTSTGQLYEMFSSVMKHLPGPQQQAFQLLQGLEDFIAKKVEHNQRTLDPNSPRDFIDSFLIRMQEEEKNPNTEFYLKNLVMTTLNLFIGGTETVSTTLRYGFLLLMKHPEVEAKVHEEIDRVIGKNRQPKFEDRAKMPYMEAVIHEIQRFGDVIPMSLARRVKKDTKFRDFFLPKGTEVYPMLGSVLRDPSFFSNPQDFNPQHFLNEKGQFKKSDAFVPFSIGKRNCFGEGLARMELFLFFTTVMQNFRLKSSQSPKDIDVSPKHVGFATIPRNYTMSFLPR
ABCB1: ATP-dependent translocase ABCB1 (ABCB1, Homo sapiens, UniProt P08183)
UniProt P08183, sequence (whole entry, looked up): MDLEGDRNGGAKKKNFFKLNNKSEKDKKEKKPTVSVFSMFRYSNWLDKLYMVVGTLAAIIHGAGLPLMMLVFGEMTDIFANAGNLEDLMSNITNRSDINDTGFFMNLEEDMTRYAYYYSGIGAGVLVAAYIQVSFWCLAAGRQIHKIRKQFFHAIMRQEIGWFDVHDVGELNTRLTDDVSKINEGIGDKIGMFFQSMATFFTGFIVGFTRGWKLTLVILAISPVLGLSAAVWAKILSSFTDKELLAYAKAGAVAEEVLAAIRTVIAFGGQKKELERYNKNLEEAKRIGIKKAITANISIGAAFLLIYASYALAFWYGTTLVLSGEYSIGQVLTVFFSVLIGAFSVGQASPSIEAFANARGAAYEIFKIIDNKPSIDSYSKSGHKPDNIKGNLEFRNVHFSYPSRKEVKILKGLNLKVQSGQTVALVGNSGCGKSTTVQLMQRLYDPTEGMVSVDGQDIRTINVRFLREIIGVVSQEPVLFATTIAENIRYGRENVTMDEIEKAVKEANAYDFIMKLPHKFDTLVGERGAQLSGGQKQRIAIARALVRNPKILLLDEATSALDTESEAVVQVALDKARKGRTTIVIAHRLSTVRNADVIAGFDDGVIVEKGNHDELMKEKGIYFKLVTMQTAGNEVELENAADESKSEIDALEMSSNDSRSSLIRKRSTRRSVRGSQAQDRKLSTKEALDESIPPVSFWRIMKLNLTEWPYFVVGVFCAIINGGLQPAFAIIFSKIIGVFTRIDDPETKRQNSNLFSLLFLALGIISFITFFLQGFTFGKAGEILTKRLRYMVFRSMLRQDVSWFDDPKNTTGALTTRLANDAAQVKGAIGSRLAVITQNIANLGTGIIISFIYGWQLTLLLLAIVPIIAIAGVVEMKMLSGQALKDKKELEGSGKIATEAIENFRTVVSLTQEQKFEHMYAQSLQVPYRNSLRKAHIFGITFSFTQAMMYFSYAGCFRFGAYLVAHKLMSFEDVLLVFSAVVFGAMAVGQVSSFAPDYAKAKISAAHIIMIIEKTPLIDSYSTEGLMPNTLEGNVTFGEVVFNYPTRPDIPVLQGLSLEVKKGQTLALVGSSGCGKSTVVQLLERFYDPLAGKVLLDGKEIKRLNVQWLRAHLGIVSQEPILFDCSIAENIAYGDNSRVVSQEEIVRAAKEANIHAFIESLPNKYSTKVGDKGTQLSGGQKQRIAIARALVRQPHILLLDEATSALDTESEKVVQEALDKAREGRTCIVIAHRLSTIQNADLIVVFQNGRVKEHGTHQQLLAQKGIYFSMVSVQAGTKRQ
CYP2C9: Cytochrome P450 2C9 (CYP2C9, Homo sapiens, UniProt P11712)
UniProt P11712, sequence (whole entry, looked up): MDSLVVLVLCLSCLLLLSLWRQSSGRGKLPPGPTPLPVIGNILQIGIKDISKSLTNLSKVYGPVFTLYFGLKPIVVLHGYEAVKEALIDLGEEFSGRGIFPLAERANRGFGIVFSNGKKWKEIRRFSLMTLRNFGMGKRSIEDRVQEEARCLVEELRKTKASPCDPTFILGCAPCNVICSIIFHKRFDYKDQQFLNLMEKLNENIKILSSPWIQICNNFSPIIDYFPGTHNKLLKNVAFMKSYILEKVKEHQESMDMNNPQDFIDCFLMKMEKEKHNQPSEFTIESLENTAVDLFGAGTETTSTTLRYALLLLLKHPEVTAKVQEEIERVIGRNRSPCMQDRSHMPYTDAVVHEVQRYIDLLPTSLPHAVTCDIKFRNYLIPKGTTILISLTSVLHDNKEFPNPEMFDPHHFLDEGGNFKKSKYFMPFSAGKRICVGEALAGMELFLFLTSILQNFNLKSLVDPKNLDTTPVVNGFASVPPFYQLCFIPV
Cytochrome P450 2A13: Cytochrome P450 2A13 (Homo sapiens, UniProt Q16696)
UniProt Q16696, sequence (whole entry, looked up): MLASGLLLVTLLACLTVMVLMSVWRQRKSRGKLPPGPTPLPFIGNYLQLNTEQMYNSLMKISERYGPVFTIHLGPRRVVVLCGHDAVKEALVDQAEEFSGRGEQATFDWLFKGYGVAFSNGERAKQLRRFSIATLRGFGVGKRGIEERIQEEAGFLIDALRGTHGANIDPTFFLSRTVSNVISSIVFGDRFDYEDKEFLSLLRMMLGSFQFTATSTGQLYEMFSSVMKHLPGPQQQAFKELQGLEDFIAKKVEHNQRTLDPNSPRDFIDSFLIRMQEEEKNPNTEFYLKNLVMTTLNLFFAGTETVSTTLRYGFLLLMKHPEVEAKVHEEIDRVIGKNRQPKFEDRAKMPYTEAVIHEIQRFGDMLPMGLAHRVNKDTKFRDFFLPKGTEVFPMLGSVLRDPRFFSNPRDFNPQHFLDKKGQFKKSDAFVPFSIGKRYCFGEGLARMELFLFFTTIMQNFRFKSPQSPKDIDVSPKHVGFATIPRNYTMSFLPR
NR1I2: Nuclear receptor subfamily 1 group I member 2 (NR1I2, Homo sapiens, UniProt O75469)
UniProt O75469, sequence (whole entry, looked up): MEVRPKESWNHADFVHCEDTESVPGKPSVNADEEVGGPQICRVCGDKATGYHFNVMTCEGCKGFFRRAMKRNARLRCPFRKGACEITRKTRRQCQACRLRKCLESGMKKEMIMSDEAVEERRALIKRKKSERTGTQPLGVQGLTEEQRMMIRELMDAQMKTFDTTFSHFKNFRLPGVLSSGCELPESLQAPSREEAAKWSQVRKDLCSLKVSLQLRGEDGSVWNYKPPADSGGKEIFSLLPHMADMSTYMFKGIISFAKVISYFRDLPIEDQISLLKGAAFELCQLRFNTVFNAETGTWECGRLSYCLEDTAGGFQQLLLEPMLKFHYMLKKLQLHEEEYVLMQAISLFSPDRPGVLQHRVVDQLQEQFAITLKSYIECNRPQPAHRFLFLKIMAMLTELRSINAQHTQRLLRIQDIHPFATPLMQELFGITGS
AHR: Aryl hydrocarbon receptor (AHR, Delphinapterus leucas, UniProt Q95LD9)
UniProt Q95LD9, sequence (whole entry, looked up): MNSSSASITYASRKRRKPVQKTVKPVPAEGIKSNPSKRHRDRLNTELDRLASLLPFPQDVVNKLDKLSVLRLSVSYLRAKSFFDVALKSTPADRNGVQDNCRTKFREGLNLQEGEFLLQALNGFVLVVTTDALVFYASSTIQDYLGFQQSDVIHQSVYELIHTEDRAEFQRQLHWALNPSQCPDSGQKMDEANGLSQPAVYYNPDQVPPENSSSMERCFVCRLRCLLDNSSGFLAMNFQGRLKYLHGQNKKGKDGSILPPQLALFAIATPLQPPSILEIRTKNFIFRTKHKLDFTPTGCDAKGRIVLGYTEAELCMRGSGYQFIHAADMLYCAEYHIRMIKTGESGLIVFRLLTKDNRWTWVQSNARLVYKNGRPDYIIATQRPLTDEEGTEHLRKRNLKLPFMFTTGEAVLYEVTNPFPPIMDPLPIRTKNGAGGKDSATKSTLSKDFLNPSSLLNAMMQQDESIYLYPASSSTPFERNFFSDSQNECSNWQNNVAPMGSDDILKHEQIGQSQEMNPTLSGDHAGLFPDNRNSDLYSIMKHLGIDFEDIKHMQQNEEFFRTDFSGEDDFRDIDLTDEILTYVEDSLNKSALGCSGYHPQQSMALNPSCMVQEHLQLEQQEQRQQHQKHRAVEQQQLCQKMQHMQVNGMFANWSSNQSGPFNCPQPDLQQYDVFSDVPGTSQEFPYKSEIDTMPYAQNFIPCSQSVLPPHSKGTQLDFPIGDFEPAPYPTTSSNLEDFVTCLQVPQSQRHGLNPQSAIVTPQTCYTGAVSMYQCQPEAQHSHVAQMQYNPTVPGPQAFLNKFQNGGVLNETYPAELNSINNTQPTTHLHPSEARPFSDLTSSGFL
UniProt P14780, sequence (whole entry, looked up): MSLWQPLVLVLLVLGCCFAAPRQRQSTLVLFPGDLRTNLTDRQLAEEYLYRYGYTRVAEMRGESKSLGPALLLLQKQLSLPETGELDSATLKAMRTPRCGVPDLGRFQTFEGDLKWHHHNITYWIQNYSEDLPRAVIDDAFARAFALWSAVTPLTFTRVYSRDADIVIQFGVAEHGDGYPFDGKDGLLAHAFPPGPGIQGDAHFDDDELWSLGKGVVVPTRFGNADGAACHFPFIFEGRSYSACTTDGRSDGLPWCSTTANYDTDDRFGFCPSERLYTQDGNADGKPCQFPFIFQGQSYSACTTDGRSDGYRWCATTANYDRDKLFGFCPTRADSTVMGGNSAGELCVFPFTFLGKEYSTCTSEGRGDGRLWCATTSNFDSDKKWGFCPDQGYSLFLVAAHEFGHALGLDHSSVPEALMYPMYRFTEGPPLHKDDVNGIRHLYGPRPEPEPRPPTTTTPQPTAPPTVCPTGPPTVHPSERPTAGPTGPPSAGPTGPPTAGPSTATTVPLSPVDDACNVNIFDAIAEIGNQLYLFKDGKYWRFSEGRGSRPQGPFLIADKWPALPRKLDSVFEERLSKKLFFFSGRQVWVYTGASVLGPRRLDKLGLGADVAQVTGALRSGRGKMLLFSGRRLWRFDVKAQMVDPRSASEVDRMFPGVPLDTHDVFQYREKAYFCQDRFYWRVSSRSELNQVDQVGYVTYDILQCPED
UniProt P09237, sequence (whole entry, looked up): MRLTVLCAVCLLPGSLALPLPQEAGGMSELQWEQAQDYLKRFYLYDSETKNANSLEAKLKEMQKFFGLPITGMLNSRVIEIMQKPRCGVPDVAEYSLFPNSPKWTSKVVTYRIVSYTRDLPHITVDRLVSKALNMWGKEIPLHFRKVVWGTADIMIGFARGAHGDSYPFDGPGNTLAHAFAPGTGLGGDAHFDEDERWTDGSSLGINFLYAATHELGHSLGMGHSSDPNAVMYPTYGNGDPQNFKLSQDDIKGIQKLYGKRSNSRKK

For `C#CCOc1ccc2ccccc2c1`, the Kd was 33 µM (CYP2A6; binding, absorbance; pH 7.4).
With `c1cn[nH]c1` the Kd was 19 µM (CYP2E1 (Oryctolagus cuniculus, UniProt P08682); spectral titration; pH 7.4, 25 °C, first catalytic site).
The cleavage of `CC[N+]1=C(C=CC=CC=C2N(CCCCCC(=O)NCCN3C(=O)CC(SC[C@@H](NC(=O)[C@@H](CCCNC(=N)N)NC(=O)[C@@H](CCCNC(=N)N)NC(=O)[C@@H](CCCNC(=N)N)NC(=O)[C@@H](CCCNC(=N)N)NC(=O)[C@@H](CCCNC(=N)N)NC(=O)[C@@H](CCCNC(=N)N)NC(=O)[C@@H](CCCNC(=N)N)NC(=O)[C@@H](CCCNC(=N)N)NC(=O)[C@@H](CCCNC(=N)N)NC(=O)[C@H](CC(C)C)NC(=O)[C@H](CCCCN)NC(=O)[C@H](CC(C)C)NC(=O)[C@H](CCC(N)=O)NC(=O)[C@H](CC(C)C)NC(=O)[C@H](CCCNC(=N)N)NC(=O)CCCCCNC(=O)[C@@H](CCC(=O)O)NC(=O)[C@@H](CCC(=O)O)NC(=O)[C@@H](CCC(=O)O)NC(=O)[C@@H](CCC(=O)O)NC(=O)[C@@H](CCC(=O)O)NC(=O)[C@@H](CCC(=O)O)NC(=O)[C@@H](CCC(=O)O)NC(=O)[C@@H](CCC(=O)O)NC(=O)[C@H](N)CCC(=O)O)C(N)=O)C3=O)c3ccc(S(=O)(=O)O)cc3C2(C)C)C(C)(C)c2cc(S(=O)(=O)[O-])ccc21` (stereo partly drawn) is reported as 23.4 ± 2.5% (Matrilysin (MMP7, Homo sapiens, UniProt P09237); substrate; 5 µM, 2 h).
The Cmax increase of `CC(C)c1nc(N(C)S(C)(=O)=O)nc(-c2ccc(F)cc2)c1/C=C/[C@@H](O)C[C@@H](O)CC(=O)O` is reported as 94% (OATP1B1/1B3; human, plasma; oral, 10 mg single dose, added: dabrafenib at dosing initiation; relative to: compound alone).
`calcein AM` gave a Vmax of 46 ± 2 nmol Pi/min/mg protein (ABCB1; ATPase activity, substrate; membranes; added: ATP 1 mM).
The fold induction of `Clc1ccc(-c2cc(Cl)c(Cl)cc2Cl)cc1Cl` is reported as 1.4 ± 0.1 fold (PXR (polar bear); reporter gene, agonist, luciferase; COS-7; 24 h; relative to: DMSO).
`CC[C@H](C)[C@@H]1NC(=O)[C@H](CCC(=O)O)NC(=O)[C@@H](NC(=O)[C@@H](NC(=O)CNC(=O)[C@H](CO)NC(=O)[C@H](CC(C)C)NC(=O)[C@H](CO)NC(=O)[C@H](CCC(=O)O)NC(=O)[C@H](CCCNC(=N)N)NC(=O)[C@@H](NC(=O)[C@H](C)NC(=O)[C@@H]2CSSC[C@H](NC(=O)[C@H](Cc3ccc(O)cc3)NC(=O)[C@H](CO)NC(=O)[C@@H](NC(=O)[C@H](C)N)[C@@H](C)O)C(=O)N[C@@H](CCCNC(=N)N)C(=O)N[C@@H]([C@@H](C)O)C(=O)NCC(=O)N[C@@H](CCCNC(=N)N)C(=O)N2)[C@@H](C)O)C(C)C)CSSC[C@@H](C(=O)N[C@@H](CO)C(=O)N[C@@H](CCCNC(=N)N)C(=O)O)NC(=O)[C@H](CC(C)C)NC(=O)[C@H](CCCNC(=N)N)NC(=O)[C@H](Cc2ccc(O)cc2)NC(=O)[C@H](CC(C)C)NC(=O)[C@H](CCCNC(=N)N)NC(=O)CNC(=O)[C@H](CO)NC1=O`: “time to full digestion” no more than 2 min (trypsin; proteolytic degradation, substrate; 80 µM, pH 8.2, room temperature).
The parent fraction of `Nc1ccncc1[18F]` is reported as 15 ± 1.5% (Cytochrome P450 2E1 (Cyp2e1, Mus musculus, UniProt Q05421); awake mice, plasma; intravenous, 35 min, sesame oil vehicle pretreatment).
Under “peptide signal reduction”, `CC1=C(CO)C2=C(C)C3(CC3)[C@@](C)(O)C(=O)C2=C1` is recorded as 60% (Thioredoxin reductase 1, cytoplasmic, active site peptide (Txnrd1, Rattus norvegicus, UniProt O89049); LC-MS of tryptic digest, item: active site peptide; concentration not given; relative to: untreated enzyme).
For `O=C1Cc2cc(CCN3CCN(c4nsc5ccccc45)CC3)c(Cl)cc2N1`, the inhibition was 3.68% (CYP2C9; inhibitor; human liver microsomes; 2 µM, pH 7.4, added: diclofenac).
For `C[C@@H]1CC[C@]2(C(=O)O)CC[C@]3(C)C(=CC[C@@H]4[C@@]5(C)CC[C@H](O)[C@@](C)(CO)[C@@H]5CC[C@]43C)[C@@H]2[C@]1(C)O`, the remaining activity was 86.2% (CYP3A4/5, human; item: 1'-hydroxymidazolam; human liver microsomes; 20 µM, added: midazolam 1.535 µM).
`C#CCOCCc1cccc2ccccc12` gave a Kd of 1.1 µM (Cytochrome P450 2A13; binding, absorbance; pH 7.4).
For `Clc1ccc(C(c2ccc(Cl)cc2)C(Cl)(Cl)Cl)cc1`, the fold induction was 5.2 ± 0.6 fold (NR1I2; reporter gene, agonist, luciferase; COS-7; 24 h; relative to: DMSO).
For `Nc1ncnc2c1nc(SCCNC(=S)Nc1ccc(-c3c4ccc(=O)cc-4oc4cc(O)ccc34)c(C(=O)O)c1)n2[C@@H]1O[C@@H]2COP(=O)(O)O[C@H]2[C@H]1O`, the Km was 1.8 µM (SLCO1B3 (Homo sapiens, UniProt Q9NPD5); substrate; CHO cells; 10 min).
`Clc1ccc(-c2cc(Cl)c(Cl)c(Cl)c2Cl)cc1Cl` gave a Ki of 0.309 µM (AHR; binding, competitor; in vitro expressed receptor, added: [3H]TCDD).
With `C#CCOCc1ccccc1-c1ccccc1` the Kd was 17 µM (CYP2A6; binding, absorbance; pH 7.4).
`CC(C)(O)c1ccccc1CC[C@@H](SCC1(CC(=O)O)CC1)c1cccc(/C=C/c2ccc3ccc(Cl)cc3n2)c1` has an inhibition of 68.8% (CYP2C9; inhibitor; human liver microsomes; 2 µM, pH 7.4, added: diclofenac).
With `Clc1ccc(-c2ccc(Cl)cc2Cl)cc1` the fold induction was 1.1 ± 0.1 fold (PXR (polar bear); reporter gene, agonist, luciferase; COS-7; 24 h; relative to: DMSO).
Under “time to complete digestion”, `CC(C)C[C@H](NC(=O)[C@H](CO)NC(=O)[C@H](CC(C)C)NC(=O)[C@@H]1CCCN1C(=O)CNC(=O)[C@H](Cc1ccccc1)NC(=O)Cc1ccc2ccccc2c1)C(=O)N[C@@H](CCCNC(=N)N)C(=O)N[C@@H](CO)C(=O)N[C@@H](CCCCN)C(=O)O` is recorded as 8 h (MMP9 (Homo sapiens, UniProt P14780); protease stability, substrate, HPLC; 500 µM, pH 7.5, 37 °C, added: MMP9 10 U).
With `C#CCOc1ccccc1-c1ccccc1` the Kd was 15.4 µM (Cytochrome P450 2A13; binding, absorbance; pH 7.4).
`CCCCn1ccnc1` gave a Ki of 0.63 µM (Cytochrome P450 2E1 (Cyp2e1, Rattus norvegicus, UniProt P05182); enzyme activity, inhibitor; liver microsomes; 10 min, 37 °C, added: chlorzoxazone).
The inhibition of `C=C(C)[C@@H]1CCC(C)=C[C@H]1c1c(O)cc(CCCCC)cc1O` is reported as 30% (CYP2C19 (Homo sapiens, UniProt P33261); cotinine to COX formation, inhibitor; microsomes of overexpressing HEK293 cells; 10 µM, 30 min, pH 7.4, added: cotinine 1 mM).
`Clc1ccc(-c2cc(Cl)c(Cl)c(Cl)c2Cl)c(Cl)c1Cl` gave a fold induction of 2.3 ± 0.3 fold (NR1I2; reporter gene, agonist, luciferase; COS-7; 24 h; relative to: DMSO).
Under inhibition, `O=C(O)COc1ccc(C(=O)c2cccs2)c(Cl)c1Cl` is recorded as “no effect” (CYP2C8 human; M3 formation from THC, inhibitor; human liver microsomes; 50 µM, six individual donors, added: THC 2 µM).
`C#CCOCc1cccc2ccccc12` has a Kd of 9.3 µM (CYP2A6; binding, absorbance; pH 7.4).
`CC(=O)CC(c1ccccc1)c1c(O)c2cccc(O)c2oc1=O` (stereo not drawn) gave a Ki of 21 µM (CYP2C9; enzyme activity, inhibitor; pH 7.4).
With `C[C@@H]1CC[C@H]2[C@@H](C)C(=O)O[C@@H]3O[C@@]4(C)CC[C@@H]1[C@]32OO4` the maximum effect was 114 ± 2.85% (ABCB1; calcein accumulation, inhibitor, flow cytometry; CEM/ADR5000; concentration not given, 30 min; relative to: untreated).
With `indolo[3,2-b]carbazole` the EC50 was 9 pM (Ahr (Rattus norvegicus, UniProt P41738); reporter gene, activator; H4L7.5c2 (rat); 6 h).
For `CC(C)[C@@H]1NC(=O)c2csc(n2)[C@H](C(C)C)NC(=O)c2csc(n2)[C@H](C(C)C)NC(=O)c2csc(n2)[C@H](C(C)C)NC(=O)c2csc1n2`, the inhibition was 62% (ABCB1; efflux transport, inhibitor, flow cytometry; HeLa, transduced with BacMam P-gp; 10 µM, 10 min, added: calcein-AM 0.5 µM; relative to: tariquidar 1 µM).
`Clc1cc(Cl)c(-c2c(Cl)cc(Cl)c(Cl)c2Cl)cc1Cl` gave a fold induction of 3 ± 0.6 fold (PXR (polar bear); reporter gene, agonist, luciferase; COS-7; 24 h; relative to: DMSO).
`C#CCOc1ccccc1-c1ccccc1OCC#C` gave a Kd of 11 µM (Cytochrome P450 2A13; binding, absorbance; pH 7.4).
The Km of `C1CO1` is reported as no less than 9000 µM (glutathione S-transferase, mouse; substrate; B6C3F1 mice, lung cytosol).
The Km of `Oc1cc(O)cc(/C=C/c2ccc(O)c(O)c2)c1` is reported as 44.5 ± 10.9 µM (UGT1A10 human recombinant; substrate, item: 3-glucuronide; pH 7.4).
`COc1cc2nc(N3CCN(C(=O)c4ccco4)CC3)nc(N)c2cc1OC` — result for “intracellular accumulation decrease”: 69% (ABCG2 (Homo sapiens, UniProt Q9UNQ0); MDCKII-BCRP; 5 µM, 20 min, pH 7.4; relative to: MDCKII-mock).
`N#Cc1ccnc(N2C(=O)CC[C@H]2C(=O)N(c2cncc(F)c2)[C@H](C(=O)NC2CC(F)(F)C2)c2ccccc2Cl)c1` gave an inhibition of less than 50% (SLC22A2 (Homo sapiens, UniProt O15244); metformin uptake, inhibitor; HEK293 transfected with SLC22A2; up to 65 µM, 2 min, added: [14C]-metformin).
With `Oc1ccc(/C=C/c2cc(O)cc(O)c2)cc1` the Km was 489 ± 72 µM (UGT1A10 human recombinant; substrate, item: 3-glucuronide; pH 7.4).
The fold induction of `Brc1ccc(Oc2ccc(Br)cc2Br)cc1` is reported as 3.1 ± 0.5 fold (NR1I2; reporter gene, agonist, luciferase; COS-7; 24 h; relative to: DMSO).
Under “rhodamine fluorescence ratio”, `CN(C)C(=O)C(CCN1CCC(O)(c2ccc(Cl)cc2)CC1)(c1ccccc1)c1ccccc1` is recorded as 10.3 (P-glycoprotein (Canis lupus familiaris, UniProt C0KKU9); rhodamine efflux, inhibitor; MDCK-MDR1 cells; 1 µM, added: rhodamine 123 1 µM; relative to: rhodamine alone).
`Clc1ccc(-c2ccc(Cl)c(Cl)c2Cl)cc1Cl` has a Ki of 0.567 µM (AHR; binding, competitor; in vitro expressed receptor, added: [3H]TCDD).
`Brc1ccc(Oc2cc(Br)c(Br)cc2Br)c(Br)c1` gave a fold induction of 1.6 ± 0.3 fold (PXR (polar bear); reporter gene, agonist, luciferase; COS-7; 24 h; relative to: DMSO).
`CC(=O)CC(c1ccc(O)cc1)c1c(O)c2ccccc2oc1=O` (stereo not drawn) has a Ki of 17 µM (CYP2C9; enzyme activity, inhibitor; pH 7.4).
With `C=C1CC[C@@H]2[C@](C)(CO)[C@H](O)CC[C@@]2(C)[C@@H]1C/C=C1/C(=O)OC[C@H]1O` the fraction unbound was 0.12 (Albumin (ALB, Homo sapiens, UniProt P02768); HPLC-based; human plasma).
For `CC(=O)CC(c1ccccc1)c1c(O)c2cccc(O)c2oc1=O` (stereo not drawn), the Km was 369 µM (UGT1A9 (Homo sapiens, UniProt O60656); substrate; pH 7.4, 37 °C).
`Clc1ccc(-c2ccc(Cl)cc2Cl)c(Cl)c1` gave a fold induction of 2.6 ± 0.1 fold (NR1I2; reporter gene, agonist, luciferase; COS-7; 24 h; relative to: DMSO).
The Kd of `C#CCOCc1ccc(-c2ccccc2)cc1` is reported as 66 µM (Cytochrome P450 2A13; binding, absorbance; pH 7.4).
